Measurements collected from several papers.
Each line is one published result; not all experiments were run side by side. ± marks the error that the study gave.
UniProt P35372, sequence (whole entry, looked up): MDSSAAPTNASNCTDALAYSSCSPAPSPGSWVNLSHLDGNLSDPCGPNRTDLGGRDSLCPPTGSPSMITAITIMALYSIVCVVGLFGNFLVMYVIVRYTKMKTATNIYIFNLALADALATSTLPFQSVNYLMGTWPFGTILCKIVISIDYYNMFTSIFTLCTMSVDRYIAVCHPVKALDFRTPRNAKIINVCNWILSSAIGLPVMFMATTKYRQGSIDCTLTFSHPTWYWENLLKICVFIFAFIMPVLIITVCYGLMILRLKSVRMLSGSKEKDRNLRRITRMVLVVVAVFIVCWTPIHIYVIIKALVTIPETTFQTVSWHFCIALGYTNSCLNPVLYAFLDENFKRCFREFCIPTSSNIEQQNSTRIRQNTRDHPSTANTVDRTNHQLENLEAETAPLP
UniProt P16442, sequence (whole entry, looked up): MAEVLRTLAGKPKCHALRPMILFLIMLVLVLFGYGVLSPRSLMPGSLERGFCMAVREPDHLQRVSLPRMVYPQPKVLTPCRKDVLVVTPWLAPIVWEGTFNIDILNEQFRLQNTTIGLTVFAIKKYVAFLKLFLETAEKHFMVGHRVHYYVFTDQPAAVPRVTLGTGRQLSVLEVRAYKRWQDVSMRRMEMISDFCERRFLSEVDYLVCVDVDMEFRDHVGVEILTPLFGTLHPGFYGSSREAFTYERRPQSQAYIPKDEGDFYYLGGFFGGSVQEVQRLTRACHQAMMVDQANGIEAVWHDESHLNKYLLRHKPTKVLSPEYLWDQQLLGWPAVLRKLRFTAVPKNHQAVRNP
UniProt Q92731, sequence (whole entry, looked up): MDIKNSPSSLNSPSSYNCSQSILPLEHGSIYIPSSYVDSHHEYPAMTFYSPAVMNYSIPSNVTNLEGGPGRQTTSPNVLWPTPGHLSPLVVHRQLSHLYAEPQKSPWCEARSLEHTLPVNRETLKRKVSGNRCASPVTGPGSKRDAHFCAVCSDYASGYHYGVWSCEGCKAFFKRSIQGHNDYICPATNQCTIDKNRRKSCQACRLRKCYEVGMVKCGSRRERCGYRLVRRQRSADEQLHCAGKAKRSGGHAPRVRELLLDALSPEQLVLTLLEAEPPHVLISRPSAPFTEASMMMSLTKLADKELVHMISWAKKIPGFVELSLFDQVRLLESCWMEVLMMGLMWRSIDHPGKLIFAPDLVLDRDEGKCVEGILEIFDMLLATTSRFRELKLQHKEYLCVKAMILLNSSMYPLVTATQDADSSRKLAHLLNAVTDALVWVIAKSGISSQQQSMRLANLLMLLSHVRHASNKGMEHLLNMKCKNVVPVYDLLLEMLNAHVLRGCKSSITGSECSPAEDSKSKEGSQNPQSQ
UniProt P52480, sequence (whole entry, looked up): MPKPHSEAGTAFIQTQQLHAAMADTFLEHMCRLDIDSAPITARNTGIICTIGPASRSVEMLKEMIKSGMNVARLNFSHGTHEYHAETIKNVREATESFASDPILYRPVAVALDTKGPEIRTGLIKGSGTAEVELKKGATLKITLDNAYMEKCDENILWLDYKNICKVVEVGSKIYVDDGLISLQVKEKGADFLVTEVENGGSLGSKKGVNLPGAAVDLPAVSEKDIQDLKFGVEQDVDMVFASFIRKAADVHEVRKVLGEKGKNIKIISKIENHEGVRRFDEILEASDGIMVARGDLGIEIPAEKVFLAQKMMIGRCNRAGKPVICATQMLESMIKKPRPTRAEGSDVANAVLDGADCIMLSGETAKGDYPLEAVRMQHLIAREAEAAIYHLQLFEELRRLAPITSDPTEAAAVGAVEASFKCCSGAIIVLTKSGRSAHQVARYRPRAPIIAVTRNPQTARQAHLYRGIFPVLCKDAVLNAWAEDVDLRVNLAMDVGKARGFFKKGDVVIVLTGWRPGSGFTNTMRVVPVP
UniProt O60840, sequence (whole entry, unmodified, looked up): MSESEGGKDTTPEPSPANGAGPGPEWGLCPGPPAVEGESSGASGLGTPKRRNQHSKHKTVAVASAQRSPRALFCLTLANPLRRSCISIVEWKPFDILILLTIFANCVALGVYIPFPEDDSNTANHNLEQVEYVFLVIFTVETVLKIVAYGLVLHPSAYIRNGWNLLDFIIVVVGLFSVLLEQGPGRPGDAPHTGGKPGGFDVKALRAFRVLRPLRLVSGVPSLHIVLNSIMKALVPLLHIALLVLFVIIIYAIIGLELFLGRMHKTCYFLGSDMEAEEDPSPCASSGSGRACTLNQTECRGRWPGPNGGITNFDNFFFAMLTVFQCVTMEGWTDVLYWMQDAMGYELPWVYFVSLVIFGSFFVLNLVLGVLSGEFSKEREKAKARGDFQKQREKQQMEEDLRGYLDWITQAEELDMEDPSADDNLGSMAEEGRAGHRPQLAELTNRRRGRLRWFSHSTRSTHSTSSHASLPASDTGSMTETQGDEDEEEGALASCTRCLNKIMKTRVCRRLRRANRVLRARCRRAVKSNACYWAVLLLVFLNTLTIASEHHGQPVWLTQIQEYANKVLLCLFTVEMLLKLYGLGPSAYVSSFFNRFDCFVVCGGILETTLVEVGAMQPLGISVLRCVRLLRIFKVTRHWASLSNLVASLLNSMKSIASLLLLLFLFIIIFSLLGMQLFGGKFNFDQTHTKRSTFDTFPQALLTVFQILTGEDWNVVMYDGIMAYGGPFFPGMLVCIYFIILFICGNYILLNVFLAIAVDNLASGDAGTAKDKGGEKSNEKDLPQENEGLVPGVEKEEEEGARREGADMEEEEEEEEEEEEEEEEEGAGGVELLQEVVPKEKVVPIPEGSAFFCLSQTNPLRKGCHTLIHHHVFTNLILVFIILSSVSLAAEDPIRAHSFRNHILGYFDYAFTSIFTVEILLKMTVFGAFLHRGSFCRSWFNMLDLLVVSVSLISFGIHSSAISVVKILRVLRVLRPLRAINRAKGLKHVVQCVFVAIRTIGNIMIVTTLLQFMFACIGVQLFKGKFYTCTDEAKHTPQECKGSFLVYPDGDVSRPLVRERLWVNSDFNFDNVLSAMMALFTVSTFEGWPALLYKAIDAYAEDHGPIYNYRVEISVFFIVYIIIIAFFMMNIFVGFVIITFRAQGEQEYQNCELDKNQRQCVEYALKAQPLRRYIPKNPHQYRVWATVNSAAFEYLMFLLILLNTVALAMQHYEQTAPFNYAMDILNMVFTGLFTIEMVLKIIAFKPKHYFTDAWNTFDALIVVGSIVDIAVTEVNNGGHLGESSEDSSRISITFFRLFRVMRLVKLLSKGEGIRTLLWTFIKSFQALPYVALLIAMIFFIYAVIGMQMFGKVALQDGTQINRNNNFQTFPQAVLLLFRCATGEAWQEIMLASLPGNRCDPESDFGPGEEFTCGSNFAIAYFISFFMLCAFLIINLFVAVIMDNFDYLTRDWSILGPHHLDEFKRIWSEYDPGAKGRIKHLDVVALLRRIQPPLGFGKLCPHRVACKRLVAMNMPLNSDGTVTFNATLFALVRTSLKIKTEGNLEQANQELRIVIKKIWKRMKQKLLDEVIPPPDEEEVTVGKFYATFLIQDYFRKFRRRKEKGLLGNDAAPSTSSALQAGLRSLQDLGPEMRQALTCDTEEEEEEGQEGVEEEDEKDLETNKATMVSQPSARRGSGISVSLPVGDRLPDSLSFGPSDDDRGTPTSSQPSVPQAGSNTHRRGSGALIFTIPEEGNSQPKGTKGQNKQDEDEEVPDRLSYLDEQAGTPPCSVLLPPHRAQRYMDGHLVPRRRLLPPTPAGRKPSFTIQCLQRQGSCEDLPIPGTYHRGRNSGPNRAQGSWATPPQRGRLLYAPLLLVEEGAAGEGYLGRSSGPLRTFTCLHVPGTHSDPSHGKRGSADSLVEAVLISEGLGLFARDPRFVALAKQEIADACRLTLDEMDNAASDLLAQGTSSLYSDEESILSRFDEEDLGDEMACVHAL
UniProt O66465, sequence (whole entry, unmodified, looked up): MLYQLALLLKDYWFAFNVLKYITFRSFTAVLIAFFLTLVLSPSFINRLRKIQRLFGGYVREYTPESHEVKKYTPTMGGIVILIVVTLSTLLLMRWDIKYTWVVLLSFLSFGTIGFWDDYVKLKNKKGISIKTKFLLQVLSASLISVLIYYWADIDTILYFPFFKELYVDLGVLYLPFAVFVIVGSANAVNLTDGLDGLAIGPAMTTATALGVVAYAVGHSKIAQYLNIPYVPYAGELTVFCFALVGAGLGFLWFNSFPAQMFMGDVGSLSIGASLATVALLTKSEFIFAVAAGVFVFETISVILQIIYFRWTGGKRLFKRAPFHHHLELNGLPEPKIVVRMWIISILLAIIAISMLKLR

SMILES | target | assay | system | conditions | how to read | measurement | value
CCC(=C(c1ccc(O)cc1)c1ccc(OCCN(C)CCOCCOCCOCCOCCOC)cc1)c1ccccc1 (mixture of isomers) | ESR2 (Homo sapiens, UniProt Q92731) | radioligand competition binding |  | concentration not given, Z-Z/Z isomer form, with: [3H]estradiol tracer | reference: estradiol | relative binding affinity | 34.2 ± 1.7%
CC(C)CC(NC(=O)C(NC(=O)NC(C(=O)O)C(C)C)C1CCNC(=N)N1)C(=O)NCCCNC(C(=O)O)C(OC1OC(CN)C(O)C1O)C1OC(n2ccc(=O)[nH]c2=O)C(O)C1O (stereo not shown) | mraY (Aquifex aeolicus, UniProt O66465, K70A) | ITC |  | concentration not given, K70A mutant |  | binding stoichiometry | 0.72 ± 0.05 sites
CC1(C)C=Cc2c(cc(O)c3c(=O)cc(-c4ccc(O)cc4O)oc23)O1 | PTPN1 (Homo sapiens, UniProt P18031) | fluorescence quenching |  | concentration not given |  | binding site number | 1.17
CC(=O)C12NC(C)(C)CC1(C)C(=O)C1=C2c2c(c3c4n2C(C)(C)CC2=C4C4(CC(C)(C)NC(C)(C4)C2=O)CC3(C)C)C(=O)C(C)(C)N1 (single isomer, unassigned; (+)) | OPRM1 (Homo sapiens, UniProt P35372) | cAMP level, agonist, LANCE Ultra cAMP | CHO cells | concentration not given |  | activity | inactive
CC(=O)N[C@H]1[C@@H](OP(=O)(O)OP(=O)(O)OC[C@H]2O[C@@H](n3ccc(=O)[nH]c3=O)[C@H](O)[C@@H]2O)O[C@H](CO)[C@@H](O)[C@@H]1O | ABO (Homo sapiens, UniProt P16442) | binding, NMR |  |  |  | kon | 59000 M⁻¹ s⁻¹
[C-]#[O+].[C-]#[O+].[C-]#[O+].[C-]#[O+].[C-]#[O+].[C-]#[O+].[Cl-].[Cl-].[Re+].[Re+].c1cnc(-c2ncccn2)nc1 | Albumin (ALB, Homo sapiens, UniProt P02768) | tryptophan fluorescence quenching |  |  |  | Stern-Volmer constant | 449000 M⁻¹
Nc1cccc(S(=O)(=O)N2CCCN(S(=O)(=O)c3ccc4c(c3)OCCO4)CC2)c1 | Pyruvate kinase PKM, isoform M2 (Pkm, Mus musculus, UniProt P52480) |  | A549 PKM2 knockdown, cell lysate | 40 µM, 3 h |  | pyruvate kinase activity increase | 248 ± 21%
COc1ccc(C(C/C=C/CN2CCCC(C(=O)O)C2)(c2ccc(OC)cc2)c2ccc(OC)cc2)cc1 (stereo not shown) | Sodium- and chloride-dependent glycine transporter 1, isoform GlyT1c (SLC6A9, Homo sapiens, UniProt P48067) | inhibitor, MS binding competition |  | 1.0 µM, pH 7.5, 22 °C, compound mixture deconvolution, with: Org24598 15 nM |  | remaining specific binding | 49.8 ± 6.5%
CN(C)CCCCOc1ccc2cc(CN)ccc2c1 | Primary amine oxidase, liver isozyme (Bos taurus, UniProt Q29437) | substrate, fluorescence |  |  | reference: benzylamine | relative kcat/Km | 920
CCCCCCOc1ccc(C(=O)OCCN2CC=CCC2)cc1 | CHRM3 (Homo sapiens, UniProt P20309) | recovery of [3H]NMS binding after washing | membranes | 100 µM |  | dissociation half-time | 2.7 ± 0.3 h
O=C1CCC(N2C(=O)c3ccc(N4CCC(C(=O)N5CCC(CCN6CCC(CNC(=O)c7cccc(-c8noc(C(F)(F)F)n8)c7)(c7nc(-c8ccccc8)cs7)CC6)CC5)CC4)cc3C2=O)C(=O)N1 (stereo not shown) | HDAC7 (Homo sapiens, UniProt Q8WUI4) | degrader, western blot | NB-4 | 1 µM, 24 h |  | degradation | > 85%
Nc1cccc2c1[nH]c(=O)n2C1CCN(C(=O)Nc2ccc(I)cc2)CC1 | OGG1 (Homo sapiens, UniProt O15527) | differential scanning fluorimetry |  |  | higher = stabilisation | thermal shift | 5.5 K
CC(C)(C)CCN1C[C@@H]2[C@@H](CNC(=O)c3cc(Cl)cc(Cl)c3)[C@@H]2C1.Cl | Voltage-dependent L-type calcium channel subunit alpha-1F (Homo sapiens, UniProt O60840, M1004A) | calcium current, whole-cell patch clamp | HEK-293T cells | 100 µM |  | reversal potential | 60.8 ± 4.45 mV

A few entries again:
SMILES | target | assay | system | conditions | how to read | measurement | value
Nc1cccc2c1[nH]c(=O)n2C1CCN(C(=O)Nc2ccc(I)cc2)CC1 | OGG1 (Homo sapiens, UniProt O15527) | differential scanning fluorimetry |  |  | higher = stabilisation | thermal shift | 5.5 K
